Results collected from several papers.
Compare with care: the assays were run in different laboratories. Numbers after ± are the reported error.
PIK3CB: Phosphatidylinositol 4,5-bisphosphate 3-kinase catalytic subunit beta isoform (PIK3CB, Homo sapiens, UniProt P42338)
UniProt P42338, sequence (whole entry, looked up): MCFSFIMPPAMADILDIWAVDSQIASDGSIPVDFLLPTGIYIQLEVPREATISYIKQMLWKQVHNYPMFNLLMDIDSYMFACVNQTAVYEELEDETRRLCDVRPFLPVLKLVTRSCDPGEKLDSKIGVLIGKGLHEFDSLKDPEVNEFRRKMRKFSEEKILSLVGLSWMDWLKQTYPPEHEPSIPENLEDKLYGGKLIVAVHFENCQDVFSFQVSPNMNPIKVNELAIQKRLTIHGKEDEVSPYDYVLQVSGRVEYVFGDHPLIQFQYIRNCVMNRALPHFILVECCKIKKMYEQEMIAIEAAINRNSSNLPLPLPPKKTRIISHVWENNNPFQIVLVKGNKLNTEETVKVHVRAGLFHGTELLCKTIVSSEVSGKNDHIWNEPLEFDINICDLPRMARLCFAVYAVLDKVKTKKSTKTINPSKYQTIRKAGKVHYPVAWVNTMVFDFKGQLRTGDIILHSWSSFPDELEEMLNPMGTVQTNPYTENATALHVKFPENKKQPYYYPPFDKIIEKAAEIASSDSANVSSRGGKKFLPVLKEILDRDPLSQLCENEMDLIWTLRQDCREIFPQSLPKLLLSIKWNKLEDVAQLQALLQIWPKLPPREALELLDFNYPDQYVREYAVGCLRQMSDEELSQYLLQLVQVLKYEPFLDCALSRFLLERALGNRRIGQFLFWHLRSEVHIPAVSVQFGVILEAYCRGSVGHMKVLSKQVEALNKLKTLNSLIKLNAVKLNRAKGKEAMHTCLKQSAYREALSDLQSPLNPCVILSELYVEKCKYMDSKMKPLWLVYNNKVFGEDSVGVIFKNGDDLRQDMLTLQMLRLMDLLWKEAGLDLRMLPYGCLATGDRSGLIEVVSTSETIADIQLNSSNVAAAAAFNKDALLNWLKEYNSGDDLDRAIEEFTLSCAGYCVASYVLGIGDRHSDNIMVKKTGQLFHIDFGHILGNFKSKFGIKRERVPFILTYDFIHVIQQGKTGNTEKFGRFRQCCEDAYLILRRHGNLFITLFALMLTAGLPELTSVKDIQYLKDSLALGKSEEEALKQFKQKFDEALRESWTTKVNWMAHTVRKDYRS
UniProt P06239, sequence (whole entry, looked up): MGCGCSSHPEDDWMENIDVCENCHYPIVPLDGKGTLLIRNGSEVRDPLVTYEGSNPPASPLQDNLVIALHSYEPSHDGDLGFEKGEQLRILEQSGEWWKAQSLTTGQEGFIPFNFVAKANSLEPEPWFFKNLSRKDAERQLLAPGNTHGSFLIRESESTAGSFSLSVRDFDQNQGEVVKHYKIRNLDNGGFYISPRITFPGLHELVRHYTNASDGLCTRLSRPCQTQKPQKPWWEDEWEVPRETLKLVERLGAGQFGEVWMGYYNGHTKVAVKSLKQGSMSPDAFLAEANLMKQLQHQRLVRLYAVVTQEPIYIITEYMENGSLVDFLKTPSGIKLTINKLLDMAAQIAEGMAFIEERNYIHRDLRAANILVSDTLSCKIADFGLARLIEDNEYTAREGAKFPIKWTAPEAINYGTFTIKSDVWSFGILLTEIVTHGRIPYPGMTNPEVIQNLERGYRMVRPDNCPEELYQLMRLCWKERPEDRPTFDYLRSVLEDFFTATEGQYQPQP
UniProt P10275, sequence (whole entry, looked up): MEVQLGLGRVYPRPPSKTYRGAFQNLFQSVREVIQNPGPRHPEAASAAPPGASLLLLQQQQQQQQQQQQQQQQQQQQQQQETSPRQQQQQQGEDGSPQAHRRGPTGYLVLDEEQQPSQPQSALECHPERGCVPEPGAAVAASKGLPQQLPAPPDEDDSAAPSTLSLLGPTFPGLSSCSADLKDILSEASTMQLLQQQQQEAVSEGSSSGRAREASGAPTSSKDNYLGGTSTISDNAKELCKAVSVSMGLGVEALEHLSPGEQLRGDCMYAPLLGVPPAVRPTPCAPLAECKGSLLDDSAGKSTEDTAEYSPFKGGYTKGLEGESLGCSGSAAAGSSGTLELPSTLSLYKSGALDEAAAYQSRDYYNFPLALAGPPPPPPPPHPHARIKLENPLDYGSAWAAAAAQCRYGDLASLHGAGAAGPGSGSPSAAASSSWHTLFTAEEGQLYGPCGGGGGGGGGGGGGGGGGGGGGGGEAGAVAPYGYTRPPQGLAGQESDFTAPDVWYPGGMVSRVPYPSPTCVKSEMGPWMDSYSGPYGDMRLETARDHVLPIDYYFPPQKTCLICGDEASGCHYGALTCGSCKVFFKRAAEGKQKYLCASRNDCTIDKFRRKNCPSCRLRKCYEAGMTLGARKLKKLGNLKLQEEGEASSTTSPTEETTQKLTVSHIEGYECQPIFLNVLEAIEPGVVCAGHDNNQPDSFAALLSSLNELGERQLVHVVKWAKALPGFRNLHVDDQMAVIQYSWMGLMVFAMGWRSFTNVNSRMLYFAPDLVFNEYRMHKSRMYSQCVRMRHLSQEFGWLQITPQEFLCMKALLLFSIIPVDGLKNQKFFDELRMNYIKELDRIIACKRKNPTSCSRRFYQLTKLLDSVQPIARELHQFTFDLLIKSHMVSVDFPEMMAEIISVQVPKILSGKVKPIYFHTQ
UniProt P13504, sequence (whole entry, looked up): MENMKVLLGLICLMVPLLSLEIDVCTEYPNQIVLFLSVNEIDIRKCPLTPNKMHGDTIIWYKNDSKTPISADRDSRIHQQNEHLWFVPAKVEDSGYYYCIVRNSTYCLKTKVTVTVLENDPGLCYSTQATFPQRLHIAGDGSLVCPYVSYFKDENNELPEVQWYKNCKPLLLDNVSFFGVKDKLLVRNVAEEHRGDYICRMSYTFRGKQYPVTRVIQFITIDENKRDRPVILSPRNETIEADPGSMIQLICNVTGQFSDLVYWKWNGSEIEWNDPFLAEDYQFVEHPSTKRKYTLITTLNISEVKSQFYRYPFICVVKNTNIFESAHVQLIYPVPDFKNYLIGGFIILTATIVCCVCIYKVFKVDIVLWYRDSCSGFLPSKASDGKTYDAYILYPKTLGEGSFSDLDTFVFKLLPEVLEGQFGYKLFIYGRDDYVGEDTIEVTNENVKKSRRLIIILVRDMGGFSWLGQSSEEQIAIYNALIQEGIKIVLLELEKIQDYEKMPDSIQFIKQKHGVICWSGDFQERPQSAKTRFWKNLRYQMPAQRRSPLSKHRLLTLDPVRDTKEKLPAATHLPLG
UniProt P15823, sequence (whole entry, looked up): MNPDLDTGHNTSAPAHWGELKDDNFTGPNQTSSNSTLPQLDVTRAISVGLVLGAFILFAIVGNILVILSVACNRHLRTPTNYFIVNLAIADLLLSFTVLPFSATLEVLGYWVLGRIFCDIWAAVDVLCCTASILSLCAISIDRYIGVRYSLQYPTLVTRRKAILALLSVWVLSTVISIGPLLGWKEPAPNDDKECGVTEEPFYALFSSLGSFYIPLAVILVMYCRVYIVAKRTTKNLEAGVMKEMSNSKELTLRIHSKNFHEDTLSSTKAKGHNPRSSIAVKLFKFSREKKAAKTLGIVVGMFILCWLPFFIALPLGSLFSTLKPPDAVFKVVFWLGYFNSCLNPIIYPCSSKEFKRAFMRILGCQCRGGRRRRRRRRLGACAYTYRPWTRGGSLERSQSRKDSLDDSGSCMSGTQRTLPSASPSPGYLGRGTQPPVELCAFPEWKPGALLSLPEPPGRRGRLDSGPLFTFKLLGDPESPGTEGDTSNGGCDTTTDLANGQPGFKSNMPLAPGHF
UniProt Q9UNU6, sequence (whole entry, unmodified, looked up): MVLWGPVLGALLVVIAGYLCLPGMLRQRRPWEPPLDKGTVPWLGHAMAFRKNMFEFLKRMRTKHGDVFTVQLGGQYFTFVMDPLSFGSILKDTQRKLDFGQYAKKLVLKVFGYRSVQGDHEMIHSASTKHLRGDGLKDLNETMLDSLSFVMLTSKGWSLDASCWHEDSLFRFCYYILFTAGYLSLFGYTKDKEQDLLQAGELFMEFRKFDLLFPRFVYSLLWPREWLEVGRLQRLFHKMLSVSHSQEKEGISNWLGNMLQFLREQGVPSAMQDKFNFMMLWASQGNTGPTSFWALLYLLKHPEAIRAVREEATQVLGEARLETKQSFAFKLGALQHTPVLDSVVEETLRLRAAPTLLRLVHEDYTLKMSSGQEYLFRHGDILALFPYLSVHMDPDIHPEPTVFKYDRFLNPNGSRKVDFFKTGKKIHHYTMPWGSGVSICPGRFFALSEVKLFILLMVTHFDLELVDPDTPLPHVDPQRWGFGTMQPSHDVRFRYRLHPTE
UniProt Q15831, sequence (whole entry, looked up): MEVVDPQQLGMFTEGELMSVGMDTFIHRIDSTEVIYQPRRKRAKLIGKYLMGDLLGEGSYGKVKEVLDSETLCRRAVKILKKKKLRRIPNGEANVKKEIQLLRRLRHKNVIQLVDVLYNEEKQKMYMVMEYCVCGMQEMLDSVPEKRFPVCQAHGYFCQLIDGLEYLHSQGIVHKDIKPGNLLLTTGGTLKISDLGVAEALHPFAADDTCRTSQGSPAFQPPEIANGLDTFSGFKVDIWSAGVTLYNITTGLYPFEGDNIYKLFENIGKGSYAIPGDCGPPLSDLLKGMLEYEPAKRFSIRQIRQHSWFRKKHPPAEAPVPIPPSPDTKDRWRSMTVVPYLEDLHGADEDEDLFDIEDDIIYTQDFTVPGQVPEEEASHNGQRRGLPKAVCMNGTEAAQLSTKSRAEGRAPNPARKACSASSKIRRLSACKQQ
UniProt P35462, sequence (whole entry, looked up): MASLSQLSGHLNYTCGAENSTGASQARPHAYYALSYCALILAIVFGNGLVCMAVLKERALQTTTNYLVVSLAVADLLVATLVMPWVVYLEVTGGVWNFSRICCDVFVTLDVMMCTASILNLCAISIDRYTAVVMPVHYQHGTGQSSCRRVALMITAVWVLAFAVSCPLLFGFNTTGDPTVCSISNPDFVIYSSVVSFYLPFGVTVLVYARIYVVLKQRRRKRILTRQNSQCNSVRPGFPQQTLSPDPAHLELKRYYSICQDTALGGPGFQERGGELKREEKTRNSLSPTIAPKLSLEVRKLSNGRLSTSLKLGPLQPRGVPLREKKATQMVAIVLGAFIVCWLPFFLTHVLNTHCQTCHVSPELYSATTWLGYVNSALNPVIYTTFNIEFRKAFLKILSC

Structure (SMILES) = O=C(NCC1CCc2nccn2C1)c1cnc2ccccn12 (stereo not shown); tested on = Cholinesterase (BCHE, Homo sapiens, UniProt P06276); test = enzyme activity, inhibitor, Ellman; setting = 10 µM; measurement = inhibition; result = 25.4%
Structure (SMILES) = CCC1CC(c2ccc(C(=O)O)cc2C)=NN1c1ccc(C#N)c(Cl)c1 (stereo not shown); tested on = N-lysine methyltransferase KMT5A (KMT5A, Homo sapiens, UniProt Q9NQR1); test = enzyme activity, inhibitor; setting = 10 µM; measurement = inhibition; result = 9%
Structure (SMILES) = COc1ccc(F)cc1S(=O)(=O)Nc1cnc2c(c1)C(=O)NCCO2; tested on = Gastrin/cholecystokinin type B receptor (CCKBR, Homo sapiens, UniProt P32239); test = ligand displacement, radioligand; setting = 10 µM; measurement = inhibition; result = 7%
Structure (SMILES) = COCC(=O)N1CCc2cc(-c3csc(NC(=O)c4cc(OC)cc(OC)c4)n3)ccc21; tested on = GABA-A receptor benzodiazepine site, rat brain; test = radioligand binding, inhibitor; setting = 10 µM, with: [3H]flunitrazepam; measurement = inhibition; result = -5%
Structure (SMILES) = O=C1c2ccccc2CCCN1CCCCN1CCN(c2cccc(Cl)c2Cl)CC1; tested on = D(3) dopamine receptor (DRD3, Homo sapiens, UniProt P35462); test = radioligand binding; setting = concentration not given, with: [3H]N-methylspiperone; measurement = inhibition; result = 99.7%
Structure (SMILES) = C[C@@]12C(=O)CC[C@H]1[C@@H]1CC=C3C[C@@H](O)CC[C@]3(C)[C@H]1C=C2c1cccnc1; tested on = 7-alpha-hydroxycholest-4-en-3-one 12-alpha-hydroxylase (Homo sapiens, UniProt Q9UNU6, W281F); test = inhibitor; setting = 80 µM, with: 7α-hydroxycholest-4-en-3-one; measurement = inhibition; result = > 40%
Structure (SMILES) = CN[C@@H]1[C@H](O)[C@H](NC)[C@H]2O[C@]3(O)[C@H](O[C@@H]2[C@H]1O)O[C@H](C)C[C@H]3NC(=O)Cc1cc(Cl)ccn1; tested on = Muscarinic acetylcholine receptor M2 (CHRM2, Homo sapiens, UniProt P08172); test = ligand displacement, radioligand; setting = 10 µM; measurement = inhibition; result = 5%
Structure (SMILES) = O=C1NC2(CC2)COc2ncc(F)cc2[C@H]2COCCN2c2ccn3ncc1c3n2; test system = Sprague-Dawley rat, male, serum; setting = oral, 10 mg/kg/day, end of treatment, 4-week repeated-dose toxicity; measurement = albumin/globulin ratio; result = 1.21 ± 0.39
Structure (SMILES) = CC(C)[C@H]1NC(=O)C[C@H]2/C=C/CCSSC[C@@H](NC1=O)C(=O)N[C@H](Cc1cccc3ccccc13)C(=O)NCC(=O)O2; tested on = Proto-oncogene serine/threonine-protein kinase mos (MOS, Homo sapiens, UniProt P00540); setting = 10 µM; measurement = inhibition; result = 0.142%
Structure (SMILES) = N[C@H](C(=O)N1CCCC1)C1CCN(c2nccc3c(-c4ncc(Cl)cc4Cl)cccc23)CC1; tested on = Tyrosine-protein kinase Lck (LCK, Homo sapiens, UniProt P06239); test = kinase activity, inhibitor; setting = 10 µM, with: ATP 1 mM; measurement = inhibition; result = 14%
Structure (SMILES) = C[C@H](NCc1ccc(-c2ccc(C(F)(F)F)cc2)cc1)C(N)=O; tested on = Serine/threonine-protein kinase STK11 (STK11, Homo sapiens, UniProt Q15831); test = cell-free assay, competition with immobilised ligand; setting = 1 µM; measurement = inhibition; result = 0%
Structure (SMILES) = CN(/N=C/c1ccccc1C(=O)O)c1nc(-c2ccccc2Cl)cs1; tested on = Protein-tyrosine kinase 2-beta (PTK2B, Homo sapiens, UniProt Q14289); test = enzyme activity, inhibitor; setting = 1 µM; measurement = inhibition; result = -27.6%
Structure (SMILES) = C=CC(=O)Nc1cc(-c2nn(C3CCC(N4CCN(C(C)=O)CC4)CC3)c3ncnc(N)c23)ccc1Oc1ccccc1 (stereo not shown); tested on = PIK3CB; test = inhibitor, KiNativ profiling; test system = biochemical; setting = 2 µM; measurement = inhibition; result = 11.6%
Structure (SMILES) = C/C(=N\OCCCN1CCCCC1)c1ccc(C(F)(F)F)cc1; tested on = Beta-1 adrenergic receptor (ADRB1, Homo sapiens, UniProt P08588); test = antagonist, cAMP; setting = 10 µM; measurement = inhibition; result = 5.77%
Structure (SMILES) = O=S(=O)(F)c1cccc(S(=O)(=O)Nc2ccc(N3CCNCC3)c(F)c2)c1; tested on = GTPase KRas (KRAS, Homo sapiens, UniProt P01116); test = SOS1-mediated nucleotide exchange; setting = concentration not given, 24 h, with: BODIPY-FL-GDP; measurement = inhibition; result = no inhibition
Structure (SMILES) = CCc1nnc(-c2c(OC)cc(-c3cnc4cc(-c5cnn(C)c5)ccn34)cc2OC)o1; tested on = Sodium-dependent serotonin transporter (SLC6A4, Homo sapiens, UniProt P31645); test = antagonist radioligand, radioligand binding; setting = 10 µM, SafetyScreen44 5-HT transporter; measurement = inhibition; result = -4%
Structure (SMILES) = CS(C)(=O)=Nc1ccc(-c2ccc(-c3nc4cc(O[C@@H]5CO[C@H]6[C@@H]5OC[C@H]6O)[nH]c4cc3F)cc2)cc1; tested on = Serine/threonine-protein kinase Nek6 (NEK6, Homo sapiens, UniProt Q9HC98); test = enzyme activity, inhibitor; setting = 10 µM; measurement = inhibition; result = 3%
Structure (SMILES) = CN[C@@H]1[C@H](O)[C@H](NC)[C@H]2O[C@]3(O)[C@H](O[C@@H]2[C@H]1O)O[C@H](C)C[C@H]3NC(=O)Cc1ccc(Cl)cn1; tested on = Interleukin-1 receptor type 1 (Il1r1, Mus musculus, UniProt P13504); setting = 10 µM; measurement = inhibition; result = 16%
Structure (SMILES) = Cc1cc(Nc2nc(C[C@@]3(C(=O)O)CCN(Cc4cccc(Cl)c4F)[C@H](C)C3)cc(C)c2F)[nH]n1; tested on = Androgen receptor (AR, Homo sapiens, UniProt P10275); test = inhibitor; setting = 10 µM; measurement = inhibition; result = 27%
Structure (SMILES) = CN(C)[C@H]1C[C@@]23CC[C@@]4(O2)C(=CC[C@]2(C)[C@@H](c5ccc6ccncc6c5)CC[C@H]24)C=C3[C@@H](O)[C@@H]1O; tested on = Serine/threonine-protein kinase TAO2 (TAOK2, Homo sapiens, UniProt Q9UL54); test = ATP probe labelling, inhibitor, KiNativ profiling; setting = 1 µM; measurement = inhibition; result = 14.3%
Structure (SMILES) = O=C(O)c1ccccc1/C=N/Nc1nc(-c2ccccc2Cl)cs1; tested on = PIK3CB; test = enzyme activity, inhibitor; setting = 1 µM; measurement = inhibition; result = 14%
Structure (SMILES) = Cc1ccc2c(n1)c(-c1cccc(S(C)(=O)=O)c1)c(C)n2C/C(F)=C/CN; tested on = Alpha-1B adrenergic receptor (Adra1b, Rattus norvegicus, UniProt P15823); test = ligand displacement, radioligand; setting = 10 µM; measurement = inhibition; result = 17%

Excerpt of the above:
Structure (SMILES) = O=C(NCC1CCc2nccn2C1)c1cnc2ccccn12 (stereo not shown); tested on = Cholinesterase (BCHE, Homo sapiens, UniProt P06276); test = enzyme activity, inhibitor, Ellman; setting = 10 µM; measurement = inhibition; result = 25.4%
Structure (SMILES) = Cc1cc(Nc2nc(C[C@@]3(C(=O)O)CCN(Cc4cccc(Cl)c4F)[C@H](C)C3)cc(C)c2F)[nH]n1; tested on = Androgen receptor (AR, Homo sapiens, UniProt P10275); test = inhibitor; setting = 10 µM; measurement = inhibition; result = 27%
